Measured values pooled from the literature.
Route: oral

`COC(=O)N[C@H](C(=O)N1CCC[C@H]1c1ncc(-c2cc(F)c3c(c2)O[C@@H](c2cnc(C4CC4)s2)n2c-3cc3cc(-c4cnc([C@@H]5CCCN5C(=O)[C@@H](NC(=O)OC)C(C)C)[nH]4)ccc32)[nH]1)C(C)C`: “participants with Nausea” 0% (healthy adult humans; 180 mg, 6 days).
For `CN1C(=O)[C@@H](NC(=O)c2nnc(Cc3ccccc3)[nH]2)COc2cccnc21`, “participants with any TEAE” read 50% (phase I single ascending dose; human, male and female; 800 mg, fasted).
For `O=C(COc1ccc(Cl)cc1)NC12CC(c3nnc([C@H]4C[C@@H](OC(F)(F)F)C4)o3)(C1)C2`, “participants with headache” read 71.4% (human both sexes; 145 mg once daily, 14 days).
For `CC(C)c1nc(CN(C)C(=O)N[C@@H](CCN2CCOCC2)C(=O)N[C@H](CC[C@H](Cc2ccccc2)NC(=O)OCc2cncs2)Cc2ccccc2)cs1`, “participants with adverse events” read 0% (human; dose not given, catheter site induration, treatment-emergent).
Under “participants with cough TEAE”, `C=CC(=O)NC1CCN(c2ncc3ncnc(Nc4ccc(Oc5ccc6c(c5)ncn6C)c(C)c4)c3n2)CC1` is recorded as 6.3% (healthy male humans; 240 mg).
Under “participants with TEAE”, `C[C@H]1O[C@@H](O[C@H]2[C@@H](O)C[C@H](O[C@H]3[C@@H](O)C[C@H](O[C@H]4CC[C@@]5(C)[C@H](CC[C@@H]6[C@@H]5C[C@@H](O)[C@]5(C)[C@@H](C7=CC(=O)OC7)CC[C@]65O)C4)O[C@@H]3C)O[C@@H]2C)C[C@H](O)[C@@H]1O` is recorded as 10.3% (item: Headache; human; 0.25 mg).
`CCn1c(=O)c(-c2cc(NC(=O)Nc3ccccc3)c(F)cc2Br)cc2cnc(NC)cc21` — result for “participants with drug-related TEAE”: 12.5% (item: nervous system disorders; healthy human, matched to mild hepatic impairment; 50 mg single dose).
Under “participants with TEAE”, `CC(C)c1nc(N(C)S(C)(=O)=O)nc(-c2ccc(F)cc2)c1/C=C/[C@@H](O)C[C@@H](O)CC(=O)O` is recorded as 6.9% (item: vessel puncture site pain; human; 10 mg).
`CC(C)c1nc(N(C)S(C)(=O)=O)nc(-c2ccc(F)cc2)c1/C=C/[C@@H](O)C[C@@H](O)CC(=O)O` — result for “participants with headache”: 0% (human; 10 mg, alone).

A few entries again:
For `O=C(COc1ccc(Cl)cc1)NC12CC(c3nnc([C@H]4C[C@@H](OC(F)(F)F)C4)o3)(C1)C2`, “participants with headache” read 71.4% (human both sexes; 145 mg once daily, 14 days).
